{"data": "Assay results of several laboratories", "note": "Numbered parts are unrelated; each lists some results of a single study."}
{"data": "Study 1", "cell line": "HEK-293T", "effect on": "pseudovirus infection", "technique": "FDA-approved drug library screen", "organism": "VSV pseudotyped with SARS-CoV-2 spike", "tested at": "10 µM", "time": "16 h", "baseline": "vehicle-treated"}
{"Compound": "Cc1ccc(C)c(OCCCC(C)(C)C(=O)O)c1", "GFP-positive cells [%]": 107}
{"Compound": "C[C@]12CC[C@H]3[C@@H](CC[C@@]45O[C@@H]4C(O)=C(C#N)C[C@]35C)[C@@H]1CC[C@@H]2O", "GFP-positive cells [%]": 74.2}
{"Compound": "N#C[C@@H]1C[C@@H]2C[C@@H]2N1C(=O)[C@@H](N)C12CC3CC(CC(O)(C3)C1)C2", "GFP-positive cells [%]": 93}
{"Compound": "Nc1ncnc2c1ncn2[C@@H]1O[C@H](CO)[C@@H](O)[C@H]1O", "GFP-positive cells [%]": 72.2}
{"Compound": "CCOC(=O)[C@H](CCc1ccccc1)N[C@@H](C)C(=O)N1CCC[C@H]1C(=O)O", "GFP-positive cells [%]": 100}
{"data": "Study 2", "target": "Sal-like protein 4, full length isoform B (SALL4, Homo sapiens, UniProt Q9UJQ4-2, residues 1-616)", "technique": "universal PBM", "form": "double-stranded DNA, one strand shown", "sample": "in vitro", "tested at": "not given", "setting": "8-mer, flanks averaged, mean of replicates", "direction": "higher = stronger binding"}
{"Sequence": "ACTTTAAC", "E-score": 0.166}
{"Sequence": "CGCAACCA", "E-score": -0.22}
{"Sequence": "AGTGCCCA", "E-score": -0.194}
{"Sequence": "CACGTCTA", "E-score": 0.0622}
{"Sequence": "AAGACACC", "E-score": -0.243}
{"Sequence": "GAAATCCA", "E-score": 0.124}
{"Sequence": "AATTGGAA", "E-score": 0.143}
{"Sequence": "CAACGTGC", "E-score": -0.148}
{"data": "Study 3", "target": "Replicase polyprotein 1ab, main protease (rep, Severe acute respiratory syndrome coronavirus 2, UniProt P0DTD1)", "effect on": "enzyme activity", "mode": "inhibitor", "tested at": "20 µM", "setting": "hit confirmation"}
{"SMILES": "COc1cc(-c2ccc(/N=N/c3ccc4c(S(=O)(=O)O)cc(S(=O)(=O)O)c(N)c4c3O)c(OC)c2)ccc1/N=N/c1ccc2c(S(=O)(=O)O)cc(S(=O)(=O)O)c(N)c2c1O", "inhibition [%]": 94.5}
{"SMILES": "Cc1ccc(C)c(-n2sc3cc(F)ccc3c2=O)c1", "inhibition [%]": 110}
{"SMILES": "O=C(O)Cn1c2c(c3cc(F)ccc31)CN(C(=O)c1cccc3ccccc13)CC2", "inhibition [%]": 6.8}
{"SMILES": "CO/N=C(\\C(=O)N[C@@H]1C(=O)N2C(C(=O)O)=C(CSC(=O)c3ccco3)CS[C@H]12)c1csc(N)n1", "inhibition [%]": 73.1}
{"data": "Study 4", "target": "Replicase polyprotein 1ab, nsp13 helicase (rep, Severe acute respiratory syndrome coronavirus 2, UniProt P0DTD1)", "mode": "inhibitor", "tested at": "20 µM"}
{"SMILES": "Cc1cc(SCc2sc(-c3ccc(C(F)(F)F)c(F)c3)nc2C)ccc1OCC(=O)O", "inhibition [%]": 13.1}
{"SMILES": "CCC[C@H](NC(=O)/C(C#N)=C/c1cccc(Br)n1)c1ccccc1", "inhibition [%]": 67.5}
{"SMILES": "O=C(Nc1cccc(C(F)(F)F)c1)Nc1cc(S(=O)(=O)NC2CC2)ccc1-c1ccsc1", "inhibition [%]": 2.81}
{"SMILES": "Cc1cc(O)ccc1Cl", "inhibition [%]": 6.74}
{"SMILES": "C[C@H](c1ccc2ccc(O[C@H]3CC[C@@H](C(F)(F)F)CC3)c(C(F)(F)F)c2c1)N1C2CCC1CC(C(=O)O)C2 (some centres unmarked)", "inhibition [%]": 4.3}
{"SMILES": "Cc1cccc(/C=C/c2ccccc2)n1", "inhibition [%]": 4.19}
{"SMILES": "Cc1cc2c(OCC(CNC(C)(C)C)OC(=O)c3ccccc3)cccc2[nH]1 (centres unmarked)", "inhibition [%]": 6.92}
{"SMILES": "CCCC(=O)C1CCN(c2ncnc3c2CN(C(=O)c2ccc(-c4ccccc4)cc2)CC3)CC1", "inhibition [%]": 6.41}
{"SMILES": "O=c1[nH]c(=O)n([C@H]2C[C@H](O)[C@@H](CO)O2)cc1F", "inhibition [%]": 0.41}
{"SMILES": "COc1cc(SC)ccc1C(=O)N1CCC(Cc2ccccc2)CC1", "inhibition [%]": 3.99}
{"SMILES": "Nc1nc(=O)c2c([nH]1)NC[C@H](CNc1ccc(C(=O)N[C@@H](CCC(=O)O)C(=O)O)cc1)N2C=O", "inhibition [%]": 4.78}
{"SMILES": "CCCCC[C@H](O)/C=C/[C@@H]1[C@@H](C/C=C\\CCCC(=O)O)[C@H](O)C[C@H]1O", "inhibition [%]": 11.9}
{"SMILES": "COc1cccc(OCCCN)c1-c1cc(Nc2cnc(C#N)cn2)n[nH]1", "inhibition [%]": 6.19}
{"SMILES": "CCOC(=O)Nc1nc2ccccc2[nH]1", "inhibition [%]": 6.78}
{"SMILES": "O=c1ccn([C@@H]2O[C@H](COP(=O)(O)OP(=O)(O)OP(=O)(O)O)[C@@H](O)[C@H]2O)c(=O)[nH]1", "inhibition [%]": 5.85}
{"SMILES": "N#Cc1cccc(-c2c[nH]c3ncnc(N4CCOCC4)c23)c1", "inhibition [%]": -7.24}
{"SMILES": "S=C(NCc1ccc2c(c1)OCO2)N1CCN(c2ncnc3c2oc2ccccc23)CC1", "inhibition [%]": -0.5}
{"SMILES": "CCCCCCCCCCCCCCCC(=O)OC(C)C", "inhibition [%]": 7.38}
{"SMILES": "CN1C(=O)c2c(nn(Cc3ccc(-c4cccc(F)n4)cc3)c2Nc2ccccc2)N2C1=N[C@@H]1CCC[C@@H]12", "inhibition [%]": 8.29}
{"SMILES": "CC(=O)CC(c1ccc([N+](=O)[O-])cc1)c1c(O)c2ccccc2oc1=O (centres unmarked)", "inhibition [%]": 6.1}
{"SMILES": "COc1cc(N)c(Cl)cc1C(=O)NC1CCN(Cc2ccccc2)CC1", "inhibition [%]": 2.8}
{"SMILES": "CCCc1nc(C)c2c(O)nc(-c3cc(S(=O)(=O)N4CCN(CC)CC4)ccc3OCC)nn12", "inhibition [%]": 6.74}
{"SMILES": "CCC(C)(C)c1ccc(CC(C)CN2C[C@@H](C)O[C@@H](C)C2)cc1 (some centres unmarked)", "inhibition [%]": 10.3}
{"SMILES": "CC(=O)Oc1cc2c(s1)CCN(C(C(=O)C1CC1)c1ccccc1F)C2 (centres unmarked)", "inhibition [%]": 7.03}
{"SMILES": "CNC(=O)c1ccccc1Nc1nc(Nc2ccc(N3CCOCC3)cc2OC)ncc1Cl", "inhibition [%]": -1.03}
{"data": "Study 5", "target": "TAR DNA-binding protein 43, full length, His tag (TARDBP, Homo sapiens, UniProt Q13148, residues 1-414)", "technique": "RNA Bind-n-Seq", "form": "RNA", "sample": "in vitro", "tested at": "20 nM", "setting": "6-mer, flanks averaged, single round", "with": "150 mM KCl", "baseline": "input library", "direction": "higher = stronger binding"}
{"Sequence": "UUACAG", "6-mer enrichment (R)": 0.637}
{"Sequence": "AGCUCA", "6-mer enrichment (R)": 0.624}
{"Sequence": "CGUCAU", "6-mer enrichment (R)": 0.612}
{"Sequence": "GAAUCG", "6-mer enrichment (R)": 0.905}
{"Sequence": "UGCAGG", "6-mer enrichment (R)": 1.66}
{"Sequence": "CCGCCC", "6-mer enrichment (R)": 0.656}
{"Sequence": "AUUAUA", "6-mer enrichment (R)": 0.666}
{"Sequence": "UGUGGU", "6-mer enrichment (R)": 1.47}
{"note": "Excerpt of the above (study 4):"}
{"SMILES": "Cc1cc2c(OCC(CNC(C)(C)C)OC(=O)c3ccccc3)cccc2[nH]1 (centres unmarked)", "inhibition [%]": 6.92}
{"SMILES": "CCCC(=O)C1CCN(c2ncnc3c2CN(C(=O)c2ccc(-c4ccccc4)cc2)CC3)CC1", "inhibition [%]": 6.41}
{"SMILES": "O=c1[nH]c(=O)n([C@H]2C[C@H](O)[C@@H](CO)O2)cc1F", "inhibition [%]": 0.41}
{"SMILES": "COc1cc(SC)ccc1C(=O)N1CCC(Cc2ccccc2)CC1", "inhibition [%]": 3.99}
{"SMILES": "Nc1nc(=O)c2c([nH]1)NC[C@H](CNc1ccc(C(=O)N[C@@H](CCC(=O)O)C(=O)O)cc1)N2C=O", "inhibition [%]": 4.78}
